Assay results from different studies.
Each numbered part is a random draw from the data of one study; scales do not carry over between parts. Positions count from the first letter of the parent shown.

Set 1
Target: Histone acetyltransferase KAT6A, both winged helices, GST fusion (KAT6A, Homo sapiens, UniProt Q92794, residues 1-181)
Technique: protein binding microarray
Form: double-stranded DNA, one strand shown
Medium: in vitro
Tested at: not given
Setting: 8-mer, flanks averaged, mean of 2 arrays, mostly near background
Reference: not given
Direction: higher = stronger binding
Target sequence (chain): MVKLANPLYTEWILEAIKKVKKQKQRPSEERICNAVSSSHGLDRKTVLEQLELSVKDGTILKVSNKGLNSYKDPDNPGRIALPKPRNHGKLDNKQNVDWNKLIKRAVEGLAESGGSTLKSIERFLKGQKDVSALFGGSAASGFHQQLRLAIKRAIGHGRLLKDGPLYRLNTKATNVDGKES
With `GTGTTCAA` the E-score was 0.162.
`AATCGACA` has an E-score of -0.0557.
The E-score of `ACAAGGTA` is reported as -0.0934.
The E-score of `CGTTATGA` is reported as 0.0701.
With `GCATAATA` the E-score was 0.0396.
`CACGCTGA` has an E-score of 0.0872.
With `ACGTTCAA` the E-score was 0.0774.
With `GGATCGAA` the E-score was 0.135.
The E-score of `CTATTCAG` is reported as -0.187.
The E-score of `GGATCGGA` is reported as 0.144.
`CAAATGAA` has an E-score of -0.122.
`CTAGACTA` has an E-score of -0.062.

Set 2
Target: RNA binding protein fox-1 homolog 2, RRM domain, GST-SBP tag (RBFOX2, Homo sapiens, UniProt O43251-10, residues 100-194)
Technique: RNA Bind-n-Seq
Form: RNA
Medium: in vitro
Tested at: 365 nM
Setting: natural RNA segment, single round, ends assumed
Reference: no-protein control
Direction: higher = stronger binding
Residues (chain): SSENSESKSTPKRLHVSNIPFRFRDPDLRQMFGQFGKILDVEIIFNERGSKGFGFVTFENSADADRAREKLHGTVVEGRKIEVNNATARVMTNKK
Under “RBNS enrichment (R)”, `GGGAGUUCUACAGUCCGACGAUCAUCAUCAGAAUGCAUUCUUUUUUUUUUCGGAGACGGAGUUUCACUCUUGCUGCCCAGGCUGGAGUGCAAUGGUGCAAUGACCUCGGCUCACUGCAACCUCUGCCUCCUGGUGGAAUUCUCGGGUGCCAA` is recorded as 0.194.
`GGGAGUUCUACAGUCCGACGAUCUGGCUACUGCUGAGUCCUCUGGGGUUGAGGGAAGGCGAGCCGGGCAGGGGCCAUGUCAUGUUAUUGGGACUUGGGGCUAAGUGGGAGGUCCUGUCCUUCCCCUCAUCUCUUGGAAUUCUCGGGUGCCAA`: “RBNS enrichment (R)” 1.24.
For `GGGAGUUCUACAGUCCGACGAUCCUUGAAAAGACUUAUUACAGUAGCUGGCACAUAAAGACUUGAUAGUAGUUUAUAUGGAUGCUAUCUCAUAUUAGCAUAUAUGGAAUUAAUAGUGUAUCACUAUACUUUUUUGGAAUUCUCGGGUGCCAA`, “RBNS enrichment (R)” read 0.589.
`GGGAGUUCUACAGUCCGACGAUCUUCAGUAUUAUGUUCAAAAGACAUUUUUAUCCUGAUCAUAAUUAAUUUGAAAACUCUUUAAGUUCAUGUUAUACAAGAUGAUUUACUGUAUUAUACUUUUCCUUUUUUAUUGGAAUUCUCGGGUGCCAA` — result for “RBNS enrichment (R)”: 0.793.
`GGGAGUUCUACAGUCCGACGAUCUUCAGAGCAUGGUUAGAAGAGGAAAGGGGAGUCUCAAAGCUGGAGAGUUUACCAACAAAUAUUGACUGCAGUGAUUAACCAAGACAUUUUUGUUAACUAAAAAGUGAAAUUGGAAUUCUCGGGUGCCAA`: “RBNS enrichment (R)” 27.4.
Under “RBNS enrichment (R)”, `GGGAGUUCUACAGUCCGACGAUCGCUUCCUCAGGAUUUUCUUCAGUUGCAAGUACCUUUCCACUGAAAAUAUGAGCAUGCCCGCCUGGCUAGUAGGCAUCUGUAAGAGUGUCGCCAGGCCCGCGCCAGCUGAGUGGAAUUCUCGGGUGCCAA` is recorded as 0.61.
For `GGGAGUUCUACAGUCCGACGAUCUUGAAUGGGGUGAAAAACAGCAAAAUUAAUUCUUAGCAAGCUCCUUGUUCUCUACUGUUCACCGGGACCUGGCUGGCAAAUGACUUAGCUAUUAGUAUAUUUAAAAACUGUGGAAUUCUCGGGUGCCAA`, “RBNS enrichment (R)” read 0.539.

Set 3
Target: ABI1, truncated, D143A, DHFR fusion (Arabidopsis thaliana)
Technique: DHFR PCA, deep sequencing
Medium: yeast
Setting: methotrexate growth selection, single substitutions
Together with: (+)-ABA 0.11 µM
Reference: wild-type fitted maximum
Direction: higher = stronger binding
Parent: PYL1, truncated, DHFR fusion (Arabidopsis thaliana); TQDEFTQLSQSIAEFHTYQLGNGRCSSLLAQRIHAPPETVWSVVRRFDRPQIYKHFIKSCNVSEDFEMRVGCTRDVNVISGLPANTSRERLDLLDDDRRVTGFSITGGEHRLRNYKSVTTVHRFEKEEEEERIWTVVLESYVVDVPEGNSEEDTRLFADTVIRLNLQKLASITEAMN; partner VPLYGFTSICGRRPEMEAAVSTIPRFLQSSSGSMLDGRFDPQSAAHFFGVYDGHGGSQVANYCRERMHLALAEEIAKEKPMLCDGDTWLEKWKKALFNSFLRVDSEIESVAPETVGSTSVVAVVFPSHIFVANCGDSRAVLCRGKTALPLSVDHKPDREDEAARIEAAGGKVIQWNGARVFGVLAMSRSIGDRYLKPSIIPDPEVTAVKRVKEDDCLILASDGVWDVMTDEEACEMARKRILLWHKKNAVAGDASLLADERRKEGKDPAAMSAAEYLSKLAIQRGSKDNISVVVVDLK
`N114M`: “relative binding score” -3.29%.
`V142D`: “relative binding score” 17.9%.
`T135S`: “relative binding score” 19.6%.
`F5T`: “relative binding score” 10.3%.
For `R132C`, “relative binding score” read 45.6%.
Under “relative binding score”, `E89M` is recorded as 9.93%.
`T120Y`: “relative binding score” -7.38%.
`P146E`: “relative binding score” -4.32%.
Under “relative binding score”, `W134L` is recorded as 21.9%.
For `H110K`, “relative binding score” read 32.1%.
Under “relative binding score”, `E152D` is recorded as 23.8%.

Other studies, line by line
With `PhoQ, residues 284 288 289 292 302 303 WVSSAF` the fold induction was 5.76 (PhoP, residues 12 14 15 18 19 VHSCL (Escherichia coli, UniProt P23836); Sort-seq, refers to: YFP reporter; E. coli; PhoQ-PhoP variant library, together with: 10 µM Mg2+; reference: high Mg2+ state, higher = stronger signaling).

Some of these lines once more (set 1):
`AATCGACA` has an E-score of -0.0557.
`CTAGACTA` has an E-score of -0.062.
